# Results of several laboratories.
# Numbers after ± are the reported error.
# DRD2: D(2) dopamine receptor (DRD2, Homo sapiens, UniProt P14416)
# Chain of UniProt P14416 (whole entry, looked up): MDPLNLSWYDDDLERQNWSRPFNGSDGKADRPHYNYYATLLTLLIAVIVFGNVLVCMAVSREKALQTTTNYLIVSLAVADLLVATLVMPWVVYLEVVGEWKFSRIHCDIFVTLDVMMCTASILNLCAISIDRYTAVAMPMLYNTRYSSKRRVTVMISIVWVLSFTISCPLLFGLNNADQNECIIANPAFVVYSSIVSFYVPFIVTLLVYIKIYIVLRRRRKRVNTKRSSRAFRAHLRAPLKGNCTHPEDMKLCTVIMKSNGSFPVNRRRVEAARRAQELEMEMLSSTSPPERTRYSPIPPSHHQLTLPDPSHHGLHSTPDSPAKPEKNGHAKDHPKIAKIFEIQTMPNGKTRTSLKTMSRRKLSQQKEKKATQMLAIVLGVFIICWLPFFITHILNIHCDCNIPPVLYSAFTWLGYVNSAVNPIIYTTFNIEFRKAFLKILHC
# Chain of UniProt Q07820 (whole entry, looked up): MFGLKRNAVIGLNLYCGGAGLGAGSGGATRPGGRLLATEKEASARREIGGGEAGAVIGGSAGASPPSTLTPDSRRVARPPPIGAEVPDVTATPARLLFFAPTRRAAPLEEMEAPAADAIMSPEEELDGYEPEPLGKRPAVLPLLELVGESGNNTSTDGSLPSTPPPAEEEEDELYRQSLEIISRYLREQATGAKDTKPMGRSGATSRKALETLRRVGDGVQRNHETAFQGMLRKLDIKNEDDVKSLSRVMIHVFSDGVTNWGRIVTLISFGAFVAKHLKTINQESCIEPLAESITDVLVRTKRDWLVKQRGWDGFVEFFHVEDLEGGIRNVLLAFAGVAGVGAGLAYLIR
# Chain of UniProt P20815 (whole entry, looked up): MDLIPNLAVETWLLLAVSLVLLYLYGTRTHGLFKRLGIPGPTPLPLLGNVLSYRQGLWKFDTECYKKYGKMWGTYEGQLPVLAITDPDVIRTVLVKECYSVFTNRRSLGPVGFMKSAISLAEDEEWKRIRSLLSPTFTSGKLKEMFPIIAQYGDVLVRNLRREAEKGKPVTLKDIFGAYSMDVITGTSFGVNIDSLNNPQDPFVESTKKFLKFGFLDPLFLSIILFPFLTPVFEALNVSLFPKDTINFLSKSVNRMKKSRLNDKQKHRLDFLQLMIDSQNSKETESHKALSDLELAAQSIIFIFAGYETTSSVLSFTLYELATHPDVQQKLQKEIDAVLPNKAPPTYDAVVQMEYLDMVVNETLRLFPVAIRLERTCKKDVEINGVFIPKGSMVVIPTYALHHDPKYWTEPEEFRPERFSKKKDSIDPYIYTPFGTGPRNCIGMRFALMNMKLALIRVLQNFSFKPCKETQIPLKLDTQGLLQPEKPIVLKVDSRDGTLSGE
# Chain of UniProt Q16620 (whole entry, looked up): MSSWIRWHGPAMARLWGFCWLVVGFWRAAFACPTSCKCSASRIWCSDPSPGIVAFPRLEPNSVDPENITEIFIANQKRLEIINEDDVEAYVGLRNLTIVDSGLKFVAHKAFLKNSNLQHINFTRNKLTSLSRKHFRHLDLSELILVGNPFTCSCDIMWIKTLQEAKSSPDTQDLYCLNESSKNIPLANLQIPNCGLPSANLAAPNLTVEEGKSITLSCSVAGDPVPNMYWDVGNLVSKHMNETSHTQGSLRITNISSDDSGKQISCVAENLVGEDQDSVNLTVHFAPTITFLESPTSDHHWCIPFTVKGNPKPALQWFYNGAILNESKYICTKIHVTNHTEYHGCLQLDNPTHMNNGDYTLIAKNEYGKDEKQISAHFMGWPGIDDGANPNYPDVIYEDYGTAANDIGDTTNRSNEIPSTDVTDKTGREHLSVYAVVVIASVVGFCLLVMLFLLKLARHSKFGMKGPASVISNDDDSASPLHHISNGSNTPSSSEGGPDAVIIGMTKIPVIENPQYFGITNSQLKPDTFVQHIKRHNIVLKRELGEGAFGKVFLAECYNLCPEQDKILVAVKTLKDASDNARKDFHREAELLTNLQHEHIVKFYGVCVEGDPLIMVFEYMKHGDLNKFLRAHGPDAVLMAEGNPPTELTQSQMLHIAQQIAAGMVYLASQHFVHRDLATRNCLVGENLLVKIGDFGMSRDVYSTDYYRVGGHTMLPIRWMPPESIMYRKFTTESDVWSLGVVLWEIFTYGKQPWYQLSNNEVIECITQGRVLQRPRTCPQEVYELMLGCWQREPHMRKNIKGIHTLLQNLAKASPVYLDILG
# Chain of UniProt P49674 (whole entry, looked up): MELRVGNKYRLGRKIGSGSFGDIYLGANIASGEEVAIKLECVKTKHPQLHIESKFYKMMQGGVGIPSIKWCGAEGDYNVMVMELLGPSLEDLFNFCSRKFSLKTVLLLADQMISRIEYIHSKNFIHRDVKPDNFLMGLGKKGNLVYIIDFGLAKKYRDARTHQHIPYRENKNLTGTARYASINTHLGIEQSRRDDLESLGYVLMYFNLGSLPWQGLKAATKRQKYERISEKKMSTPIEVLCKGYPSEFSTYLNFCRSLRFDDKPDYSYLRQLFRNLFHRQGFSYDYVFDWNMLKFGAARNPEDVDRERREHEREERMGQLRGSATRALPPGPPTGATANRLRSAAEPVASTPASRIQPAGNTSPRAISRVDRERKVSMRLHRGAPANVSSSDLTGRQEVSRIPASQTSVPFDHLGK
# Chain of UniProt Q00534 (whole entry, looked up): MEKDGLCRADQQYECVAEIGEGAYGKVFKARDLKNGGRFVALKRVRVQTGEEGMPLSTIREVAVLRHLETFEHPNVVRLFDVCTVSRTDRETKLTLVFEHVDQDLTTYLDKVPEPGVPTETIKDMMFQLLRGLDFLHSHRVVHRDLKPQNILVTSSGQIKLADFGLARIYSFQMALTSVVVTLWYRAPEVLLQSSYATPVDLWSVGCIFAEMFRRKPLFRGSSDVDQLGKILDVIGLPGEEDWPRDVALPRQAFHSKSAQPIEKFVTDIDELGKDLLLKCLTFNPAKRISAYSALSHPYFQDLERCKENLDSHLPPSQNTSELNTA
# Chain of UniProt P33261 (whole entry, looked up): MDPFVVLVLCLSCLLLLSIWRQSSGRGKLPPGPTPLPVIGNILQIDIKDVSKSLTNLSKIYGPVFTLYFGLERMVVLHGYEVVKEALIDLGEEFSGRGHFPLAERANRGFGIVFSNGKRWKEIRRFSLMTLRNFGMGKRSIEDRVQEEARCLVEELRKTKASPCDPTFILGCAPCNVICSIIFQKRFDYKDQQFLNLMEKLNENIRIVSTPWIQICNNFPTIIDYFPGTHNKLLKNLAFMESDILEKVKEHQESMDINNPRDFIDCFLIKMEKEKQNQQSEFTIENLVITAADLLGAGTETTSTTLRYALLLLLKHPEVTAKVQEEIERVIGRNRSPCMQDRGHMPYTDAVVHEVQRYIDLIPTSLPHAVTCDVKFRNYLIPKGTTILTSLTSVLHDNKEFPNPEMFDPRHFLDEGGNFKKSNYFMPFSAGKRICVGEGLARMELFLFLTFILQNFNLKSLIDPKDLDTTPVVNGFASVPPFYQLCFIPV
# Chain of UniProt O43318 (whole entry, looked up): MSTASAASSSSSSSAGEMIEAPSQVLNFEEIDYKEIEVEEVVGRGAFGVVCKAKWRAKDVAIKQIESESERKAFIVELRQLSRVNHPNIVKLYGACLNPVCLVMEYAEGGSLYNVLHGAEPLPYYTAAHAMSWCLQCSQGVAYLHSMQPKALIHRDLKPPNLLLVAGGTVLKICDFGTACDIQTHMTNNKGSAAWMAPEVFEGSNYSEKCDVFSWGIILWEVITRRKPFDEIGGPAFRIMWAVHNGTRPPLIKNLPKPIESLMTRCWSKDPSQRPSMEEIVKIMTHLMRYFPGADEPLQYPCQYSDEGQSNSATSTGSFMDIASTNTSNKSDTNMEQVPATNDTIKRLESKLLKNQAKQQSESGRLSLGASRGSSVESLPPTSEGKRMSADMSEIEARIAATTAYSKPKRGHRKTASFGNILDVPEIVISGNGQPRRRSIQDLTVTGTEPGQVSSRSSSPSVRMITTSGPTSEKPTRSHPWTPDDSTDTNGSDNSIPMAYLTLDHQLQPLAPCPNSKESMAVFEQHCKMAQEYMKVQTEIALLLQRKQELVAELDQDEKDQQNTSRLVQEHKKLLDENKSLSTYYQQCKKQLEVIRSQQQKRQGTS
SMILES,target,test,setting,IC50
CN(C)C(=O)c1cc2cnc(Nc3cc(C(=O)O)cc(-c4ccc5c(=O)cc(N6CCOCC6)oc5c4)c3)nc2n1C1CCCC1,"Cyclin-dependent kinase 6, with cyclin D1 (CDK6, Homo sapiens, UniProt Q00534)","inhibitor, HotSpot radiometric kinase","with: 10 µM ATP, cyclin D1",2780 nM
O=C1CN(c2nc(=O)c3cc(C(F)(F)F)cc([N+](=O)[O-])c3s2)CCN1C1CCCC1,"CYP2C19 (Homo sapiens, UniProt P33261)",,"60 (unit not given), pH 7.4",5520 nM
Fc1ccc(-c2nc[nH]c2-c2ccncc2)cc1,"CSNK1E (Homo sapiens, UniProt P49674)",inhibitor,,120 ± 23.2 nM
C[C@H]1CN(C)CCCN1c1nccc(-c2noc([C@@]3(C)CCCc4sc(N)c(C#N)c43)n2)n1,"GTPase KRas, with SOS1 (KRAS, Homo sapiens, UniProt P01116, C118S/G12V)","KRAS G12V-SOS1 interaction, inhibitor, AlphaScreen",geometric mean,9 nM
Cc1cc(Nc2ncc(Cl)c(Nc3ccccc3S(=O)(=O)C(C)C)n2)c(OC(C)C)cc1C1CCNCC1,"NTRK2 (Homo sapiens, UniProt Q16620)","enzyme activity, inhibitor",with: 1 mM ATP,> 3300 nM
C[C@]1(c2nc(-c3cccc(N4CCNCC4)c3)no2)CCCc2sc(N)c(C#N)c21,"GTPase KRas, with SOS1 (KRAS, Homo sapiens, UniProt P01116)","KRAS wild type-SOS1 interaction, inhibitor, AlphaScreen",geometric mean,1250 nM
Cc1[nH]c(C)c(S(=O)(=O)Nc2ccc(I)c(Cl)c2)c1C(=O)N1CCC(F)(F)C1,DRD2,,,> 100000 nM
COc1cc2c(c(OC)c1OC)-c1c(cc3c(c1OC)OCO3)C[C@H](C)[C@](C)(O)[C@H]2OC(=O)c1ccccc1,"Cytochrome P450 3A5 (CYP3A5, Homo sapiens, UniProt P20815)","testosterone 6β-hydroxylation, inhibitor, recombinant enzyme","15 min, pH 7.4, with: testosterone 50 µM",85 ± 40 nM
C=CCN(CC=C)C(=O)c1c(C)[nH]c(C)c1S(=O)(=O)Nc1ccc(C(F)(F)F)c(Cl)c1,DRD2,,,> 100000 nM
C=C(C)C1CC=C(C)CC1 (centres unmarked),α-glucosidase,,with: 4-nitrophenyl α-D-glucopyranoside,> 30 mg/mL
Cc1[nH]c(C)c(C(=O)N2CCC(F)(F)C2)c1C(=O)Nc1ccc(C(F)(F)F)c(Cl)c1,DRD2,,,> 100000 nM
Oc1cc(Br)c(Br)c(Br)c1Oc1ccc(Br)cc1Br,"MCL1 (Homo sapiens, UniProt Q07820)","Bak peptide binding, inhibitor, FRET (LANCE)",,< 17200 nM
CN1CCN(c2ccc(Nc3ncc4cc(C#N)c(=O)n(C5CCCC5)c4n3)cc2)CC1,"Mitogen-activated protein kinase kinase kinase 7, with TAB1 (MAP3K7, Homo sapiens, UniProt O43318)",,,597 nM
Cc1[nH]c(C)c(S(=O)(=O)Nc2ccc(C(F)(F)F)c(Cl)c2)c1C(=O)N1CC2(CCC2)C1,DRD2,,,> 100000 nM

# Excerpt of the above:
SMILES,target,test,setting,IC50
O=C1CN(c2nc(=O)c3cc(C(F)(F)F)cc([N+](=O)[O-])c3s2)CCN1C1CCCC1,"CYP2C19 (Homo sapiens, UniProt P33261)",,"60 (unit not given), pH 7.4",5520 nM
